Measurements of several laboratories.
Each line is one published result; not all experiments were run side by side. ± marks the error that the study gave.
Organism: Salmonella typhimurium

Structure (SMILES) | assay | test system | conditions | scale | endpoint | result
N#C[C@@]1(n2ccc(N)nc2=O)O[C@H](CO)[C@@H](O)[C@H]1O | – | TA1537 | 1.2 µM, without S9 | – | viability | 91%
Cc1cc(C(=O)NC(C)(C)COc2cccc3c2C(N)=NS(=O)(=O)N3)cc(C)n1 | Ames test, confirmatory | TA98 | 100 µg/plate, with: rat liver S9 | baseline: solvent control | revertant ratio | 0.9
O=[N+]([O-])c1ccc(N2CCN(CCC(O)c3ccc(F)cc3)CC2)c(C(F)(F)F)c1 (stereo not drawn) | SOS/umu test | TA1535/pSK1002 | 0.063 mg/mL, 4 h, without S9, lower range | – | survival | 109%
O=NN1CCN(C2CCCC2)CC1 | mutagenicity, Ames plate incorporation | TA1537 | 1500 µg/plate, 3 d, without S9, methanol | – | revertant colonies per plate | 12 ± 3
O=[N+]([O-])c1ccc(NC2CCNCC2)c(C(F)(F)F)c1 | genotoxicity, SOS/umu test | TA1535/pSK1002 | 0.016 mg/mL, 4 h, without S9, full range | – | induction factor | 0.8
CN(CC(C)(C)C)N=O | mutagenicity, Ames plate incorporation | TA1535 | 2500 µg/plate, without S9, methanol | – | revertant colonies per plate | 33 ± 4
O=[N+]([O-])c1ccc(N2CCC(NCCC(O)c3ccc(F)c4ccccc34)CC2)c(C(F)(F)F)c1 (stereo not drawn) | SOS response, SOS/umu test | TA1535/pSK1002, TGA medium | 0.001 mg/mL, 4 h, with: rat liver S9 | baseline: untreated | induction factor | 0.71
CN(N=O)c1ccc(F)cc1 | mutagenicity, Ames plate incorporation | TA98 | 500 µg/plate, 3 d, without S9, methanol | – | revertant colonies per plate | 20 ± 5
CC(=O)N1CCC(C(=O)N2CCN3C(=O)c4cc(-c5ccccc5)ccc4NC(=O)C3C2)CC1 (stereo not drawn) | – | TA1535 | 5.0 µg/plate, with: rat liver S9 | – | revertants per plate | 15
Fc1ccc(C2=CCNCC2)cc1 | SOS/umu test | TA1535/pSK1002, TGA medium | 1 mg/mL, 4 h, with: 10% rat liver S9 | – | survival | 40.4%
CC(C)N(C)N=O | mutagenicity, Ames plate incorporation | TA1537 | 500 µg/plate, 3 d, without S9, methanol | – | revertant colonies per plate | 11.3 ± 6
COc1cccc(-c2n[nH]c(SCc3ccccn3)n2)c1OC | Ames test, preincubation | TA98 | 0.13 mg/plate, with rat liver S9 | – | revertant colonies per plate | 25

For quick reference, copied from above:
Structure (SMILES) | assay | test system | conditions | scale | endpoint | result
COc1cccc(-c2n[nH]c(SCc3ccccn3)n2)c1OC | Ames test, preincubation | TA98 | 0.13 mg/plate, with rat liver S9 | – | revertant colonies per plate | 25
CN(N=O)c1ccc(F)cc1 | mutagenicity, Ames plate incorporation | TA98 | 500 µg/plate, 3 d, without S9, methanol | – | revertant colonies per plate | 20 ± 5
